Experimental data from different studies.
Every numbered part comes from another study and shows a few of its results, in no order. Positions count from the first letter of the parent shown.
Sequence of UniProt Q9HAZ1 (whole entry, looked up): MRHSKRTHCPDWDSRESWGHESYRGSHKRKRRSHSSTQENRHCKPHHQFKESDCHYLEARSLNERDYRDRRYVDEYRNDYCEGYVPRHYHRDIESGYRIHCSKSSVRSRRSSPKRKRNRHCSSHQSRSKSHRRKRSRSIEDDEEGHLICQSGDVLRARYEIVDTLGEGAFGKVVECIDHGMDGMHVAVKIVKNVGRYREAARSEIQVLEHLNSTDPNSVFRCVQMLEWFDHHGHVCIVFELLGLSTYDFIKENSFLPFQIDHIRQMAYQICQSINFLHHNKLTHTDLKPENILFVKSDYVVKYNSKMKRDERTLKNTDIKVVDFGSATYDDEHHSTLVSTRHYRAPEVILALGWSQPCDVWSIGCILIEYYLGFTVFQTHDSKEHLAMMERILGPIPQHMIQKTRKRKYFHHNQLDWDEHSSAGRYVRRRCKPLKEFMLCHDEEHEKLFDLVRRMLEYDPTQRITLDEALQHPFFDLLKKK

Sample 1 — target: CCNE2, cyclin fold, Cln2 fusion (human); method: yeast growth competition, sequencing; sample: yeast; setting: strong parent motif; baseline: not given; reading: higher = stronger binding; parent: viral docking peptide; TSVRRALFTGGSD
Variant | normalised enrichment score
TSVRRALFTGWSD [G11W] | 2.89
TWVRRALFTGGSD [S2W] | 1.02
TSVRGALFTGGSD [R5G] | 0.0892
TSVRRALVTGGSD [F8V] | 0.0728
TSVRLALFTGGSD [R5L] | 0.252
TSVRRALFTRGSD [G10R] | 2.58
TSARRALFTGGSD [V3A] | 2.27
TSVRRWLFTGGSD [A6W] | 0.875

Sample 2 — target: vanadate, free oxyanion; method: microfluidic competitive inhibition; sample: in vitro, cell-free expressed; concentration: not given; reading: lower = stronger binding
Setting: derived from inhibition constants, unchanged parent 676 nM
Parent: PafA, mature enzyme, eGFP fusion (Elizabethkingia meningoseptica, UniProt Q9KJX5); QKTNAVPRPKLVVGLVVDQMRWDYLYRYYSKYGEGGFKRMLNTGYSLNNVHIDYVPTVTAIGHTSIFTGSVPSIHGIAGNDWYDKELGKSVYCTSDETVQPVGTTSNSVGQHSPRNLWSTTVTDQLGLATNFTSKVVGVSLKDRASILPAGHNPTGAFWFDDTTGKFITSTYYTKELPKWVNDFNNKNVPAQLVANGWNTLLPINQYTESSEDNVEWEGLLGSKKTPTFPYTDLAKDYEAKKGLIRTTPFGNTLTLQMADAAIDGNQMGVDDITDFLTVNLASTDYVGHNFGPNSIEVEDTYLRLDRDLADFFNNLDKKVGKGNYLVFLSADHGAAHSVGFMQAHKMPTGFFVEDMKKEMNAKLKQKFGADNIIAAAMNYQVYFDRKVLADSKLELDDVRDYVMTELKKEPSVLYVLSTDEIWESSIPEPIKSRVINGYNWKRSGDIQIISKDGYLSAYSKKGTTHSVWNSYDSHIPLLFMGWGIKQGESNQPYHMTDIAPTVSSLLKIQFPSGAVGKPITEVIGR
Variant | oxyanion analog dissociation constant [nM]
N49V | 577
E410G | 811
W441G | 407
R307G | 695
D473G | 710
K462G | 774
P411G | 867
S46V | 585

Further values, each from its own experiment
Structure (SMILES) | target | assay | conditions | how to read | endpoint | value
CN1CCN(c2cnc3c(C4CCN(C(=O)c5ccc(OC(F)(F)F)cc5N)CC4)ncnc3c2)CC1 | SLC6A4 (Homo sapiens, UniProt P31645) | ligand displacement | 10 µM |  | inhibition | 32.4%
N/C(=N\[N+](=O)[O-])N/N=C\c1ccc(-c2cccc([N+](=O)[O-])c2)o1 | CLK4 (Homo sapiens, UniProt Q9HAZ1) | enzyme activity, inhibitor | 0.5 µM | baseline: control | remaining activity | 103%
CCCOc1ccc([C@H]2[C@H](C(=O)O)[C@@H](c3ccc4c(c3)OCO4)CN2CC(=O)Nc2c(CC)cccc2CC)cc1 | HTR1A (Homo sapiens, UniProt P08908) | cell-free assay | 10 µM |  | inhibition | -16.7%

Repeated from above (further values, each from its own experiment):
Structure (SMILES) | target | assay | conditions | how to read | endpoint | value
CN1CCN(c2cnc3c(C4CCN(C(=O)c5ccc(OC(F)(F)F)cc5N)CC4)ncnc3c2)CC1 | SLC6A4 (Homo sapiens, UniProt P31645) | ligand displacement | 10 µM |  | inhibition | 32.4%
N/C(=N\[N+](=O)[O-])N/N=C\c1ccc(-c2cccc([N+](=O)[O-])c2)o1 | CLK4 (Homo sapiens, UniProt Q9HAZ1) | enzyme activity, inhibitor | 0.5 µM | baseline: control | remaining activity | 103%
CCCOc1ccc([C@H]2[C@H](C(=O)O)[C@@H](c3ccc4c(c3)OCO4)CN2CC(=O)Nc2c(CC)cccc2CC)cc1 | HTR1A (Homo sapiens, UniProt P08908) | cell-free assay | 10 µM |  | inhibition | -16.7%
